# Results gathered from unrelated publications.
# Numbered parts are unrelated; each lists some results of a single study.

# Series 1 — method: protein-binding microarray; molecule type: double-stranded DNA, one strand shown; sample: in vitro; tested at: 2200 nM top; notes: 60-bp whole probe; with: salmon DNA 0.4 mg/ml; baseline: random background probes; direction: higher = stronger binding; shared flanks, not repeated: GCCTAGCAC … GTCTTGATTCGCTTGACGCTGCTG
# Target: Interferon regulatory factor 7, full length, phosphomimetic (IRF7, Homo sapiens, UniProt Q92985, residues 1-503, S471D/S472D/S475D/S476D/S477D/S483D/S484D/S487D)
# Chain of UniProt Q92985 (whole entry, unmodified, looked up): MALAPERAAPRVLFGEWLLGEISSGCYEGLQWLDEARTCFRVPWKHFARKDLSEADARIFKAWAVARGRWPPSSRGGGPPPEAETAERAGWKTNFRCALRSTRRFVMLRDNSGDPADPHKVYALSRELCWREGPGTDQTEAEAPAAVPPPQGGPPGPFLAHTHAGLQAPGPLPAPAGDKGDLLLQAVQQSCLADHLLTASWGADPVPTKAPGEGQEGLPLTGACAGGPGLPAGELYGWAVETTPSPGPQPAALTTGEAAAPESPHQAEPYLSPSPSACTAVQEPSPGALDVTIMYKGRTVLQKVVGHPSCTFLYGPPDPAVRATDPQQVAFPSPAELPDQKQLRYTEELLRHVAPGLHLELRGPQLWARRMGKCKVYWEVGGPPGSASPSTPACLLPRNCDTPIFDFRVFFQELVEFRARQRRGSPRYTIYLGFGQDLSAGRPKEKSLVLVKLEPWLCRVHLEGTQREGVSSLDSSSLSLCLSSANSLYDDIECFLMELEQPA
Oligonucleotide,fitted relative affinity
TTAGGTTTAGGGTTTCGGTTAGTGCTA,3.16 z-score
TCATCATTGCCTATTTTACTGTGCTAG,1.48 z-score
CTCGGGACAGGCACTCTACGGTGCTAG,-0.992 z-score
GACGATTTCAGTTCCGAGCCGTGCTAG,1.57 z-score
GACGGTTCCGGTCTCGGGACGTGCTAG,0.689 z-score
TTAGGTTTCGATACTGGGTTAGTGCTA,3.97 z-score
TTAGGACTGGATATCGGTTAGTGCTAG,-0.184 z-score
GACGGTATCCCACTGCTGACGTGCTAG,0.59 z-score
TCAGGTATCGGTTTCGGTTAGTGCTAG,7.87 z-score
TTTGGTCTCCTACTGCTTTAGTGCTAG,1.54 z-score
TTAGGTCTCCTGCTGCTTTAGTGCTAG,0.397 z-score
TCAAGTCTCAACCCCCAAACTGTGCTA,0.0435 z-score
GACGGTATGGACTTTCGGGACGTGCTA,2.36 z-score
CCTATCTTATGATATATATAAGTGCTA,0.801 z-score
ATTGTCTTCCCCATCTTGTTGTGCTAG,2.38 z-score
GACGGTATCGGTATCAGGACGTGCTAG,0.588 z-score
TCAGTTTCCAAATTGTCACTGTGCTAG,3.51 z-score
TTAGGTTTAGACACTGGGTTAGTGCTA,-0.357 z-score
GACGGACTGGCACTGGGGACGTGCTAG,-0.965 z-score
GAGGGTCTCCTTATCCTGACGTGCTAG,0.706 z-score
TTAGAGTTCAGTTCCGATTAGTGCTAG,0.654 z-score
TTAGGTTCCCTTTTCCTATAGTGCTAG,2.99 z-score
TTAGGTTCCGGACTGGGTTAGTGCTAG,0.204 z-score
GGTTTTTTTTTAATTGAAATGTGCTAG,0.845 z-score
CTTTTTTTGGTAATAGTGAAGTGCTAG,0.91 z-score

# Series 2 — method: RNA Bind-n-Seq; molecule type: RNA; sample: in vitro; tested at: 200 nM; notes: whole 134-nt RNA, ends assumed; with: 150 mM LiCl; baseline: input library; direction: higher = stronger binding; all molecules: 7-deaza-guanosine replaces G
# Target: Ras GTPase-activating protein-binding protein 1, full length (G3BP1, Homo sapiens, UniProt Q13283)
# Chain of UniProt Q13283 (whole entry, looked up): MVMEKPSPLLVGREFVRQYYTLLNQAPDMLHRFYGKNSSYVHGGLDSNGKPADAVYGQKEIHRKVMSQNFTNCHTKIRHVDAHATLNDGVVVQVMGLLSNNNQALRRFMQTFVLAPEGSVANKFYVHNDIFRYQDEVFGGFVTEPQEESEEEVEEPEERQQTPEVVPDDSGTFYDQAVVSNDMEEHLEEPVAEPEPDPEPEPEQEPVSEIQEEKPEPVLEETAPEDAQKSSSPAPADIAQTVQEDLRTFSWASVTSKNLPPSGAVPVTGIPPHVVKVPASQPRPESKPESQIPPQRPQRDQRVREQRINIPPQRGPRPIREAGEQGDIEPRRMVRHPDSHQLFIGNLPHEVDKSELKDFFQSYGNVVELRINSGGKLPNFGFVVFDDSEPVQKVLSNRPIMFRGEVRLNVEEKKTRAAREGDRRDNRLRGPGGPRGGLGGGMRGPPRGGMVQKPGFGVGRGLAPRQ
# Shared flanks, not repeated: GGGAGUUCUACAGUCCGACGAUC … UGGAAUUCUCGGGUGUCAAGG
Oligonucleotide,log2 enrichment
GCAGGAAGUAAAAACAAAUGGAAAUGCUUCGGAUAGUGGCAGGGGUGGGGGUUGCUAAGGAAAGGGUGGGAUUGGAGUGGGUAAAGAGUU,0.0663
CCUCAAGUCCUGUGCUACACAUCGUAUGUACCGAAUCGGGCCGGCCGGCCGGAAAGUAUUAUGUUACGCCGUUCGGAUCUGCACUUCCAG,0.235
GUCCUGUGCUACACAUCGUAUGUACCGAAUCGGGGUGGGGUUUUUGGGGUUUUUGGGGAAAGUAUUAUGUUACGCCGUUCGGAUCUGCAC,0.459
AAGUCCUGUGCUACACAUCGUAUGUACCGAAUCGGGAAAAGGAAAAGGGAAAAGGGAAAGUAUUAUGUUACGCCGUUCGGAUCUGCACUU,-0.161
GUCCUGUGCUACACAUCGUAUGUACCGAAUCAAAUUUUUUUAAAUUUUUAAACCCAAAAAAGUAUUAUGUUACGCCGUUCGGAUCUGCAC,-0.321
AAGUCCUGUGCUACACAUCGUAUGUACCGAAUCGUGUGUGUGUGUGUGUGUGUGUGUAAAGUAUUAUGUUACGCCGUUCGGAUCUGCACU,-0.575
UGCUGGUGAGCUGCUGCCUGGCAGGCCACGUCUGCGUGUGGGACGCGCAGACCGGGGAUUGCCUAACGCGCAUUCCGCGCCCAGGGUAGG,-0.918
GUCCUGUGCUACACAUCGUAUGUACCGAAUCGGGGAAAAAAAGGGGAAAGGGGUGGGGAAAGUAUUAUGUUACGCCGUUCGGAUCUGCAC,-0.916
UAACUUUAGAGGAGAAUCUGAUGGAUAUGGCAGUGGACGUGGAUUUGGGGAUGGCUAUAAUGGGUAUGGAGGAGGACCUGGAGGUGGCAA,-0.108
UCCUCAAGUCCUGUGCUACACAUCGUAUGUACCGAAUCGGCGGGGCGGCGGGAAAGUAUUAUGUUACGCCGUUCGGAUCUGCACUUCCAG,1.14
CAAGUCCUGUGCUACACAUCGUAUGUACCGAAUCGGGUUUGGGUUUGGGAAAGGGAAAGUAUUAUGUUACGCCGUUCGGAUCUGCACUUC,-0.603

# Series 3 — method: protein binding microarray; molecule type: double-stranded DNA, one strand shown; sample: in vitro; tested at: not given; baseline: not given; direction: higher = stronger binding
# Target: Histone acetyltransferase KAT6A, winged helix 2, GST fusion (KAT6A, Homo sapiens, UniProt Q92794, residues 85-181)
# Notes: 8-mer, flanks averaged, mean of 2 arrays, mostly near background
# Residues (chain): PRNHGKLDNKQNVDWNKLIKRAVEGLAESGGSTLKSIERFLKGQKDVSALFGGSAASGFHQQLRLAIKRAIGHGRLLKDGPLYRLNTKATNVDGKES
Oligonucleotide,E-score
CCGTGATA,-0.0795
CTAGTGCA,-0.0186
CCCCCAGC,-0.0328
AAAGATAA,0.0581
GTTAAACA,0.0141
ACCGCTCC,0.124
ACGATCAC,-0.144
CAATACTC,0.013
ATCGAGAT,-0.0341
TGAAGGCA,0.0604
AATTTCAG,0.0173
ACAGGCAT,-0.0239
AACTTGGC,-0.073
CATCAGGG,0.0827
ACTCATCC,-0.0782
AACCATCG,0.0421
AGCCTTTG,-0.171
AGATGAGC,0.0505
ACCTCTGG,-0.0498
AGTAGATC,-0.066
ATAGTTCG,-0.0401

# Series 4 — method: universal PBM; molecule type: double-stranded DNA, one strand shown; sample: in vitro; tested at: not given; direction: higher = stronger binding
# Target: Sal-like protein 4, full length isoform B (SALL4, Homo sapiens, UniProt Q9UJQ4-2, residues 1-616)
# Notes: 8-mer, flanks averaged, mean of replicates
# Construct (chain): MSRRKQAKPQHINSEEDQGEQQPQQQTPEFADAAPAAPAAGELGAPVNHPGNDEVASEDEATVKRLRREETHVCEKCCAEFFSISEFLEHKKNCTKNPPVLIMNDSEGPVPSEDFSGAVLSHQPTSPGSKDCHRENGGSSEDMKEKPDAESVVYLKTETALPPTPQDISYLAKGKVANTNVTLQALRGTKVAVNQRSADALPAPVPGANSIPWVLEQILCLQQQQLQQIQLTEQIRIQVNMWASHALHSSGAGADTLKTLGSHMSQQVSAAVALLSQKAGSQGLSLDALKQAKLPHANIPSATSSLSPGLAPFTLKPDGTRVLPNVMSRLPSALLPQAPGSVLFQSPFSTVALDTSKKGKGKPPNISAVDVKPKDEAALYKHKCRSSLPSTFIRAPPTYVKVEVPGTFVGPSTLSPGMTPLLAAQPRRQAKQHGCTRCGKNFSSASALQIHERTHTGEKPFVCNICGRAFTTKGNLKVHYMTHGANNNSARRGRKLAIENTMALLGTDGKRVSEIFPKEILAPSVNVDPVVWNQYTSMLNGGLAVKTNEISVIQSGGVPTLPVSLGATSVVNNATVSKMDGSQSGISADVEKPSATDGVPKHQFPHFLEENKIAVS
Oligonucleotide,E-score
GAACTCGC,-0.154
CACGATAG,0.0257
CCTTGGCA,-0.141
AGGGCATC,-0.271
TACCGCTA,0.0693
GGCTCACA,-0.189
AAGAAAGT,0.157
AGGAAGAG,-0.0752
GCGGTAGA,-0.0935
CTTTGAAC,-0.047
GTGACTCA,-0.192
CCTTACCA,0.106
AATGCTAG,0.0649
CTACAGGA,-0.0186
CAAAAAAA,0.291
GCTCTACC,-0.192
TCTCCAAA,0.163
GAATCTAC,0.0414
CCGGAAAC,-0.191
TCATCGAA,0.101
ATAGCGTC,-0.0101
CGTTTGTC,-0.0345
ACGCAGGC,-0.141
CCGCAGAA,-0.0851
ACCCACGC,-0.196

# Series 5 — method: RNA Bind-n-Seq; molecule type: RNA; sample: in vitro; tested at: 365 nM; baseline: no-protein control; direction: higher = stronger binding
# Target: RNA binding protein fox-1 homolog 2, RRM domain, GST-SBP tag (RBFOX2, Homo sapiens, UniProt O43251-10, residues 100-194)
# Notes: natural RNA segment, single round, ends assumed
# Shared flanks, not repeated: GGGAGUUCUACAGUCCGACGAUC … UGGAAUUCUCGGGUGCCAA
# Residues (chain): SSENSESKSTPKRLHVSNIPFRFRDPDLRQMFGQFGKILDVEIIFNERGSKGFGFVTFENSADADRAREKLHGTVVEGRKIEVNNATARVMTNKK
Oligonucleotide,RBNS enrichment (R)
AUAGUUUGUGAAAUGAUGAGGGCAUUUUAUCUGCUUGCUGUGACCAGCGUGUGUACACAUAAACCUUAACAAGACUACAAGUAUAUUCCAGAAGGAAAUCAUUUUAGUUA,0.889
CUGUCAGGCUGCGUAUUUAUUAAGUUUGGCUAUUCUAUAAAGACUUGUAUAUACUUCCGUGGAAAGAGUCAUGCGCUUCUGGAACGCCCUCUCUUCCCUGUUCCUCUGGG,0.54
UUGUUUUGUCUCCUAAAUUGUUGUAAUUGCAUUAUAAAAUAAGAAAAAUAUUAAUAAGACAAAUAUUGAAAAUAAAGAAACAAAAAGUUCUUCUGUUGAUUGAGUUUUAU,1.08
AUAAUGGAGUAGCUGUUGCCCUUCUCCGGUUGUGUGUACAGUAUGUGUGGAAUAAAAAAGGGAAACUGUUUUCACAAGCUGUUCUUUGUUUCAUAAUUGGAUUCAUCAAU,0.457
UCCUAGGACCUUAAGAGAAUAGUAGGAGGUCCUAUAGCAUUCCCAGUGUCACUAGAAUUUUGAAGACAGGAAAGUGGAGGUUAGUCUGUGGCCUUUUUUUCAUUUAGCCA,0.605
UUAAAGGCUGAGUUAUUUUUGAAUGUCAUGUUUAUGUCAUAGACGUAGUUUUCGCAUCCUUGAAUUAAACUGCCUUAACUCCUUUUGUGGUAUAAGCAAAACUACAUGGA,0.405
AGUAGGGCCUGGGACCCCGAAUGUGAAUAUAACGUAGCAUCUUCGCUGGCUAUGGCCGUGCACUCCCCGUCCUGUCCACUUCUGAAACUCUUGUUCCUAACGACAACGUG,0.544
GGCUGUUACAAUCAAGUCGUUGCAGGGUUUGGAUCAGCUGUAAGUUAGGUAUGCCUACCAAACAUCCAAAGGUAGACGUGGAGACAUUUUAAUACUACAAAACUAGGAAA,0.33
GUUUGGGGAAUGCGGCCGCAUUCCCUGAGUCACCAGGAAUGUUAAAGUCAGUGGGAACGUGACUGCCCCAACUCCUGGAAGCUGUGUCCUUGCACCUGCAUCCGUAGUUC,0.816
UGCAUCACCAUUUCUUUGGCCCCCUUACUCUGUUGUCCUUUCCCUUUUCUUUCAGUUUUUUUAAUCGCAUGUCUAGUAUAUUAAGUCUCCAUAGCCCUCCUGAUGCAGUA,58.3
AACUGCAGAGGGGGCUCCUUGAGUUCUGUCUGCACAAGAAACUGCACUGCAAGUUUUGAAGGAGUCAGUAGCCAUUAAACCUAAAUUUAAUUUAUUUUAUUAAAAUAACA,0.539
GAAGGCAGUCGUCUCUGUUACACAGUGGCAGCUCUUGAGUUAUGCACUGUGAAGAAUGAGAAGGGAAAAGCAAAAAUUAUCCUUGUGAAAUAUCUGCUGAUUGUGCCCUA,0.313
